Results collected from several papers.
Lines come from different studies, so protocols differ.
Technique: steady-state kinetics
B1: COMT (Canis lupus familiaris, UniProt Q60F99); chain MGDTKEQRILRHVLQHAVAGDPQSVLEAIDTYCSQKEWAMNVGDKKGQILDAVVREQRPSVLLELGAYCGYSAVRMARLLEPGARLITIELNPDFAAITQQMLDFAGLQDRVTILTGASQDTIPELKKKHDVDTLDMVFLDHWKDRYLPDTLLLEECGLLQKGTVLLADNVICPGTPEFLAYVRGNNRFECTHFPSYLEYSKRVDGLEKVVYKGPGSPTQP
B2: CMBL (Homo sapiens, UniProt Q96DG6); chain MANEAYPCPCDIGHRLEYGGLGREVQVEHIKAYVTKSPVDAGKAVIVIQDIFGWQLPNTRYIADMISGNGYTTIVPDFFVGQEPWDPSGDWSIFPEWLKTRNAQKIDREISAILKYLKQQCHAQKIGIVGFCWGGTAVHHLMMKYSEFRAGVSVYGIVKDSEDIYNLKNPTLFIFAENDVVIPLKDVSLLTQKLKEHCKVEYQIKTFSGQTHGFVHRKREDCSPADKPYIDEARRNLIEWLNKYM
B3: enzyme (Schizosaccharomyces pombe, UniProt Q9Y7P0); chain MFTGLVEAIGVVKDVQGTIDNGFAMKIEAPQILDDCHTGDSIAVNGTCLTVTDFDRYHFTVGIAPESLRLTNLGQCKAGDPVNLERAVLSSTRMGGHFVQGHVDTVAEIVEKKQDGEAIDFTFRPRDPFVLKYIVYKGYIALDGTSLTITHVDDSTFSIMMISYTQSKVIMAKKNVGDLVNVEVDQIGKYTEKLVEAHIADWIKKTQA
B4: FMO3 V257M (Homo sapiens, UniProt P31513); chain GKKVAIIGAGVSGLASIRSCLEEGLEPTCFEKSNDIGGLWKFSDHAEEGRASIYKSVFSNSSKEMMCFPDFPFPDDFPNFMHNSKIQEYIIAFAKEKNLLKYIQFKTFVSSVNKHPDFATTGQWDVTTERDGKKESAVFDAVMVCSGHHVYPNLPKESFPGLNHFKGKCFHSRDYKEPGVFNGKRVLVVGLGNSGCDIATELSRTAEQVMISSRSGSWVMSRVWDNGYPWDMLLVTRFGTFLKNNLPTAISDWLYMKQMNARFKHENYGLMPLNGVLRKEPVFNDELPASILCGIVSVKPNVKEFTETSAIFEDGTIFEGIDCVIFATGYSFAYPFLDESIIKSRNNEIILFKGVFPPLLEKSTIAVIGFVQSLGAAIPTVDLQSRWAAQVIKGTCTLPSMEDMMNDINEKMEKKRKWFGKSETIQTDYIVYMDELSSFIGAKPNIPWLFLTDPKLAMEVYFGPCSPYQFRLVGPGQWPGARNAILTQWDRSLKPMQTRVVGRLQKPCFFFHWLKLFAIPILLIAVFLVLT
B5: protein (UniProt A0A4Y6I1D9); chain MTLDEKPRKFDGLDIEGVAFAASVTALGAAKPLALGGAGDRGLEINGNYIKFTAIGIYVEDGIIPHLSPKLRGKTVEELCEKELLFEEVISAPFEKLVRVVFLVPLTGIQYSEKVLERISVQSLFTDIKEEHKQQFLEIFKGESFPPRSSVILSFSKEGLKVAFAKGDDVPSKAVGTIEDATFADAVLATIIWKEGVSPAAKVSLAERLSKCL
B6: protein (Danio rerio, UniProt A0EXC5); chain MTESELYSVHKGVFVPTHLHPAESLKYYEDFIFRPDDILIVTYPKSGTIWMQEIVPLVVSEGDLTLVLTVPNWDRVPWLEEHRAILLSLEQRASPRIFATHFHHQMMNPSYFKIEPRVLYVMRNPKDVFISSFHYYGMASFLVNPGTQDEFMEKFLNGNIMFGSWFDHVKGWLNAAEQEHILYISYEEMINDLRASVEKIATFLGKSLSSEVVEKIADHCVFKNMKQNKMSNLSLVPEEFMDQKKSEFLRKGIAGDWKNHFSAAQEERFNAVYDDKMKDVKFKFPWD
B7: enzyme (Candida albicans, UniProt A0A1D8PHX1); chain MISIIQNGISQLSSVSGLDEANLKILICTLLSFPFGIIFKRLPDHDYTLKNIYNVAVSCFYVFGICDLRFGISTLLISATGSYFITRYVRTKSMPWINFLFLMIHMAYSHFHLQFFKEYDPKSIDITGAQMILVMKLSAFGWNIHDGKQPRSTLNDFNKARAITKHPNVLPYIGYVFFYASLLTGPAFDYADYDKFIHGTLFDDVPQDKRPGKNKRRIPRSGVQAFKKFSLGFFWAFLLLQSDKFVTMEYMFSPEFVQYHGLFYRIIYMWILGFTFRLKYYTIWTIAEGACILCGIGYNGVDPETGEFKWNRVQNIDPWSFETGQNVHACLEAWNQNTNIWLKNYVYLRVAKPGKKPGFKSTIFTFTTSAFWHGTRPGYYLTFVVGALMQTVGKYYRRNFRPIFLEADGKTPKPTKIVYDFVCWVNTQLAFGFFVQPFVILGFTKSLECWATVYYWLLWVIAISFFAFSGPFAKSVSKFFKSLQPSYREQQRKSREDKYKLNNEEASIVEQAVGAKLGQDYDIPALGLPPFDVFTDFDQTEVDHDIQHLRKAWTSFRGRRGSITENDFDGLKDAYNNFTNEINDIFNTKKEEFKKEKLNKQN
B8: enzyme (Arabidopsis thaliana, UniProt O82390); chain MNARALLCSSNIHSLYTSNRPPEKTSSSRSLRNLKPSPKSLRVWIYPRNRSSVFRVLVRSSDKSESSNSYYVEGDKVSGNNDVVSDSPSSIVLPWWEEFPKRWVIVLLCFSAFLLCNMDRVNMSIAILPMSAEYGWNPATVGLIQSSFFWGYLLTQIAGGIWADTVGGKRVLGFGVIWWSIATILTPVAAKLGLPYLLVVRAFMGVGEGVAMPAMNNILSKWVPVQERSRSLALVYSGMYLGSVTGLAFSPFLIHQFGWPSVFYSFGSLGTVWLTLWLTKAESSPLEDPTLLPEERKLIADNCASKEPVKSIPWRLILSKPPVWALISCHFCHNWGTFILLTWMPTYYHQVLKFNLMESGLLSVFPWMTMAISANAGGWIADTLVSRGFSVTNVRKIMQTIGFLGPAFFLTQLKHIDSPTMAVLCMACSQGTDAFSQSGLYSNHQDIAPRYSGVLLGLSNTAGVLAGVLGTAATGHILQHGSWDDVFTISVGLYLVGTVIWNLFSTGEKIID
B9: enzyme (Vitis vinifera, UniProt F6HSW4); chain MAVDSGLSSPLGPPACEKDAKALQFIEEMTRNPDQVQEKILAEILSQNGETEYLQRFKLAGATDRDTFKSKVPVVTYEDLQPDIQRIANGDRSPILSSHPISEFLTSSGTSAGERKLMPTIHEEWDRRQKLYSLLMPVMNLYVPGLDKGKGLYFLFVKSETKTPSGLVARPVLTGYYRSEHFKKRPYDPYNVYTSPDEAILCVDSFQSMYAQMLCGLLMHKEVLRVGAVFASGLLRAIRFLQVHWQQLAHDISTGILNPKITDPSVREGLAGILKPSQELADFIIQECSGGNWERIITRIWPNTKYLDVIVTGAMAQYIPTLDYFSGGIPLACTMYASSECYFGLNLKPMSKPSEVSYTIMPNMGYFEFLPHDPSAPPLSRDSPPRLVDLADVEVGKEYELVITTYAGLCRYRVGDILQVTGFHNSAPQFQFIRRKNVLLSIDSDKTDEAELQKAVENASLLLREFNTSVVEYTSFADTKTIPGHYVIYWELLVKDPSNSPTDTVLKQCCLAMEESLNTVYRQGRVADNSIGPLEIRVVKSGTFEELMDYAISRGASINQYKVPRCVNFTPIMELLDSRVLSTYFSPAAPHWTPERRRTD
B10: HCT R356E (Coleus scutellarioides, UniProt E8ZAP2); chain MKIHVRDSTLVRPSAATPAVSLWNSNVDLVVPNFHTPSVYFYRPSGADNFFDTAVMKAALGRALVSFYPMAGRLKRDEDGRVEIDCNAEGVLFVEAESDGTVDDYGDFAPSLELRRLIPAVDYSQGISAYPLLVLQVTFFKCGGVSLGVGMQHHAADGFSGLHFINTWSDMARGLDITLPPFIDRTLLSARDPPQPQFKHVEYQPPPAMKTYEPAETVVSIFKLTKDQLTTLKAKSKEDGNTTTYSSYEMLSGHVWRCTCLARGLPEEQETKLYIATDGRSRLQPQLPPGYFGNVIFTATPLAVAGDLGSKPVWYAASKIHDALARMDNDYLRSALDFLELQPDLKALVRGAHTFECPNLGITSWVRLPIHDADFGWGRPIFMGPGGIAYEGLSFVLPSPTNDGSLSVAISLQAEHMKLFEKLLYQI
B11: FMO1 I303V (Homo sapiens, UniProt Q01740); chain AKRVAIVGAGVSGLASIKCCLEEGLEPTCFERSDDLGGLWRFTEHVEEGRASLYKSVVSNSCKEMSCYSDFPFPEDYPNYVPNSQFLEYLKMYANHFDLLKHIQFKTKVCSVTKCSDSAVSGQWEVVTMHEEKQESAIFDAVMVCTGFLTNPYLPLDSFPGINAFKGQYFHSRQYKHPDIFKDKRVLVIGMGNSGTDIAVEASHLAEKVFLSTTGGGWVISRIFDSGYPWDMVFMTRFQNMLRNSLPTPIVTWLMERKINNWLNHANYGLIPEDRTQLKEFVLNDELPGRIITGKVFIRPSVKEVKENSVIFNNTSKEEPIDIIVFATGYTFAFPFLDESVVKVEDGQASLYKYIFPAHLQKPTLAIIGLIKPLGSMIPTGETQARWAVRVLKGVNKLPPPSVMIEEINARKENKPSWFGLCYCKALQSDYITYIDELLTYINAKPNLFSMLLTDPHLALTVFFGPCSPYQFRLTGPGKWEGARNAIMTQWDRTFKVIKARVVQESPSPFESFLKVFSFLALLVAIFLIFL
Chain of UniProt P11509 (whole entry, looked up): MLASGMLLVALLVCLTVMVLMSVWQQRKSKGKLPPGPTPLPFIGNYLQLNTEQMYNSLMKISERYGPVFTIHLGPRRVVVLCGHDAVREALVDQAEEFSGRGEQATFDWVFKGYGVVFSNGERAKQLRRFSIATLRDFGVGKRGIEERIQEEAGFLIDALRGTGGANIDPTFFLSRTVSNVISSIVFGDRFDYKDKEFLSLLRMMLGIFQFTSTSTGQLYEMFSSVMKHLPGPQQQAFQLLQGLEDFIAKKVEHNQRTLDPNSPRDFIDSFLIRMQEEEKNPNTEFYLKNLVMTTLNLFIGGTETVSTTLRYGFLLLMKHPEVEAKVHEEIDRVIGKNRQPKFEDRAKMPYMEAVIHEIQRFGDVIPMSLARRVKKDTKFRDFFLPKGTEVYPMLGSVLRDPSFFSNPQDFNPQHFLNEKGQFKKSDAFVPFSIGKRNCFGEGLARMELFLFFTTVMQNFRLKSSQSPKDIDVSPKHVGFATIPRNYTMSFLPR
Chain of UniProt O60656 (whole entry, looked up): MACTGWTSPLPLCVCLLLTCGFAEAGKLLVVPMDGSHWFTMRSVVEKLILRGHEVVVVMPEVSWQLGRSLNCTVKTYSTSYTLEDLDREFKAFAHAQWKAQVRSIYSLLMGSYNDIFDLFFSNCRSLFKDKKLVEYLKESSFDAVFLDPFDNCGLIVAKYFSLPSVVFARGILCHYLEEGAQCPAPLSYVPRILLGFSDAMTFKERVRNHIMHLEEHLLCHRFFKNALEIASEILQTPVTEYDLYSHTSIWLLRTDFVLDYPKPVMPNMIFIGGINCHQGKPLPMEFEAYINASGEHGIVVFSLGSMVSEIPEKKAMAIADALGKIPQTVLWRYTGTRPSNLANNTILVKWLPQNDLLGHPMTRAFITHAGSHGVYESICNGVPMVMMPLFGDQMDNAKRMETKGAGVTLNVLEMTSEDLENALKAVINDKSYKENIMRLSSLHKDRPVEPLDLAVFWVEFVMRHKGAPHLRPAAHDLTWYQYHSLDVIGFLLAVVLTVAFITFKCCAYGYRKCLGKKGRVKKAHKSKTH
Chain of UniProt Q3SY77 (whole entry, looked up): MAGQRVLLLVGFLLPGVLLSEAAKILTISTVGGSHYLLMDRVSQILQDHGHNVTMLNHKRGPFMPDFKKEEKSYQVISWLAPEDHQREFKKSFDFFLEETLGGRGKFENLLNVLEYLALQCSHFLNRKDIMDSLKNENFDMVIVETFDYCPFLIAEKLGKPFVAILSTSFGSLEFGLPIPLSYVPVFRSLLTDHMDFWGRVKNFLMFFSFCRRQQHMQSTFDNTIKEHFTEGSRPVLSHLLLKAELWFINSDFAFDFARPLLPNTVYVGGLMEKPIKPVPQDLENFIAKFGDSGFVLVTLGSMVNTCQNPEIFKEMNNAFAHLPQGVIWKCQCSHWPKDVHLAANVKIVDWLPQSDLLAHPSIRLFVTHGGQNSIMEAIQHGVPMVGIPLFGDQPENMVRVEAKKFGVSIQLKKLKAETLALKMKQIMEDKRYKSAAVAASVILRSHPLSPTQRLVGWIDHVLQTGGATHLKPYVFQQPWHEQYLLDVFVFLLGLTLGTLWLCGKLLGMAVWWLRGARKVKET
Chain of UniProt Q6ZQB6 (whole entry, looked up): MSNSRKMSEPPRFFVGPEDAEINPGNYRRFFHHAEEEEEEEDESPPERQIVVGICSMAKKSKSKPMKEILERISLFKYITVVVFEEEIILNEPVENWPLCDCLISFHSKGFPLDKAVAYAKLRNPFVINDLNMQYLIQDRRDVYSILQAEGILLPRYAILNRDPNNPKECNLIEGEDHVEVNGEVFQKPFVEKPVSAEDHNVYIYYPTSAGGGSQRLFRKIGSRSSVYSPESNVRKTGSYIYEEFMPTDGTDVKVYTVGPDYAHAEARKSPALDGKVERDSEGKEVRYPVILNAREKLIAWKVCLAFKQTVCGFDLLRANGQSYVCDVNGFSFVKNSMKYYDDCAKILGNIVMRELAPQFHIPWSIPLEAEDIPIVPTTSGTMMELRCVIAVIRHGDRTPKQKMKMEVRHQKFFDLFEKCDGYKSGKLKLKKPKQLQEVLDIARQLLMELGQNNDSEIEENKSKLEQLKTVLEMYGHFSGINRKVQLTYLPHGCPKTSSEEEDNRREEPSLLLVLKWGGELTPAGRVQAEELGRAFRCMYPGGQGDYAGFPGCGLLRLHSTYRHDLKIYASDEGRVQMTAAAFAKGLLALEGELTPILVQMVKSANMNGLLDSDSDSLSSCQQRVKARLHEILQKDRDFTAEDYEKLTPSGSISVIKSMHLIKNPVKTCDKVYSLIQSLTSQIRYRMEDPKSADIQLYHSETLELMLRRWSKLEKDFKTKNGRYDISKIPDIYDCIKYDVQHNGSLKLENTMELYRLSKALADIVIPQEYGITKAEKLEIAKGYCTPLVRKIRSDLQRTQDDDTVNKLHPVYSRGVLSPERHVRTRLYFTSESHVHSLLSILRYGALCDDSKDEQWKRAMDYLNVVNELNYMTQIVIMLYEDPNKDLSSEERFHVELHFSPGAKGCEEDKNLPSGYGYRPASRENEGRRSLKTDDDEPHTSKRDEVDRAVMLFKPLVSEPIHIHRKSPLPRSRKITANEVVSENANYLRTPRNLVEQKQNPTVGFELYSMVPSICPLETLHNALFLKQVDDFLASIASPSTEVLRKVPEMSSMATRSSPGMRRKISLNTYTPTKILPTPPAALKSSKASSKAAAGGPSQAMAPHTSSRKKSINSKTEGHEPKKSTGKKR

B1 (COMT)
Vmax (O=c1oc2c(O)c(O)ccc2cc1-c1nc2ccccc2s1; dog liver S9; pH 7.4, 37 °C): 0.00069 µmol/min/mg

Ppip5k2 (Mus musculus, UniProt Q6ZQB6)
Vmax (O=P(O)(O)O[C@@H]1[C@@H](OP(=O)(O)O)[C@H](OP(=O)(O)OP(=O)(O)O)[C@@H](OP(=O)(O)O)[C@H](OP(=O)(O)OP(=O)(O)O)[C@@H]1OP(=O)(O)O; pH 5, 37 °C): 0.0442 µmol/min/mg

B2 (CMBL)
Vmax (CCCc1nc(C(C)(C)O)c(C(=O)OCc2oc(=O)oc2C)n1Cc1ccc(-c2ccccc2-c2nnn[nH]2)cc1; lysate; pH 7.4, 37 °C, not purified): 0.0246 µmol/min/mg

B3 (enzyme)
Vmax (Cc1nc2c(=O)[nH]c(=O)nc-2n(C[C@H](O)[C@H](O)[C@H](O)CO)c1C; pH 7.2, 37 °C, apparent): 0.158 µmol/min/mg

POLH (Homo sapiens, UniProt Q9Y253)
Vmax (Nc1nc2c(ncn2[C@H]2C[C@H](O)[C@@H](COP(=O)(O)OP(=O)(O)OP(=O)(O)O)O2)c(=O)[nH]1; 30 °C): 2.33e-09 µmol/min

B4 (FMO3 V257M)
Vmax (CN1CCC[C@H]1c1cccnc1; HEK293 microsomes; 37 °C, not purified, added: NADPH regenerating system): 1.18e-05 µmol/min/mg

B5 (protein)
Vmax (O=C(/C=C/c1ccc(O)cc1)c1c(O)cc(O)cc1O): 214 µmol/min/mg

B6 (protein)
Vmax (C[C@H](CCCC(CO)CO)[C@H]1CC[C@H]2[C@@H]3[C@H](O)C[C@H]4C[C@H](O)CC[C@]4(C)[C@H]3C[C@H](O)[C@]12C; pH 7, 28 °C, substrate inhibition, added: PAPS 14 µM): 0.0247 µmol/min/mg

B7 (enzyme)
Vmax (CC/C=C\C/C=C\C/C=C\CCCCCCCC(=O)SCCNC(=O)CCNC(=O)[C@H](O)C(C)(C)COP(=O)(O)OP(=O)(O)OC[C@H]1O[C@@H](n2cnc3c(N)ncnc32)[C@H](O)[C@@H]1OP(=O)(O)O; pH 7.4, 37 °C, apparent, not purified): 0.0582 µmol/min/mg

UGT3A2 (Homo sapiens, UniProt Q3SY77)
Vmax (O=c1ccn([C@@H]2O[C@H](COP(=O)(O)OP(=O)(O)O[C@H]3OC[C@@H](O)[C@H](O)[C@H]3O)[C@@H](O)[C@H]2O)c(=O)[nH]1; pH 7.4, 37 °C, not purified, added: 1-OH-pyrene 16 µM, MgCl2 10 mM, alamethicin): 0.000992 µmol/min/mg

B8 (enzyme)
Vmax (O=P(O)(O)O; pH 6.5, 25 °C, apparent, not purified): 0.00548 µmol/min/mg

CYP2A6 (Homo sapiens, UniProt P11509)
Vmax (CN1C(=O)CC[C@H]1c1cccnc1; microsomes; pH 6.7, cotinine to COX, not purified): 1.7e-05 µmol/min/mg

B9 (enzyme)
Vmax (O=C(O)Cc1cccc2ccccc12; pH 8.6, 25 °C): 0.436 µmol/min/mg

B10 (HCT R356E)
Vmax (NCCc1ccc(O)c(O)c1; pH 8, pseudo-first-order, added: p-coumaroyl CoA): 1.29 µmol/min/mg

B11 (FMO1 I303V)
Vmax (CN1CCC[C@H]1c1cccnc1; HEK293 microsomes; 37 °C, not purified, added: NADPH regenerating system): 6.9e-06 µmol/min/mg

UGT1A9 (Homo sapiens, UniProt O60656)
Vmax (O=c1cc(-c2ccccc2O)oc2cc(O)cc(O)c12; pH 7.4, 37 °C): 0.000862 µmol/min/mg

Some of these lines once more:
B3 (enzyme)
Vmax (Cc1nc2c(=O)[nH]c(=O)nc-2n(C[C@H](O)[C@H](O)[C@H](O)CO)c1C; pH 7.2, 37 °C, apparent): 0.158 µmol/min/mg

POLH (Homo sapiens, UniProt Q9Y253)
Vmax (Nc1nc2c(ncn2[C@H]2C[C@H](O)[C@@H](COP(=O)(O)OP(=O)(O)OP(=O)(O)O)O2)c(=O)[nH]1; 30 °C): 2.33e-09 µmol/min
